Experimental data pooled from the literature.
Several values in a cell are separate wells, animals, samples, runs or records. ± gives the spread as reported.
ALB: Albumin (ALB, Homo sapiens, UniProt P02768)
ABCB1: ATP-dependent translocase ABCB1 (ABCB1, Homo sapiens, UniProt P08183)
Sequence of UniProt P05177 (whole entry, looked up): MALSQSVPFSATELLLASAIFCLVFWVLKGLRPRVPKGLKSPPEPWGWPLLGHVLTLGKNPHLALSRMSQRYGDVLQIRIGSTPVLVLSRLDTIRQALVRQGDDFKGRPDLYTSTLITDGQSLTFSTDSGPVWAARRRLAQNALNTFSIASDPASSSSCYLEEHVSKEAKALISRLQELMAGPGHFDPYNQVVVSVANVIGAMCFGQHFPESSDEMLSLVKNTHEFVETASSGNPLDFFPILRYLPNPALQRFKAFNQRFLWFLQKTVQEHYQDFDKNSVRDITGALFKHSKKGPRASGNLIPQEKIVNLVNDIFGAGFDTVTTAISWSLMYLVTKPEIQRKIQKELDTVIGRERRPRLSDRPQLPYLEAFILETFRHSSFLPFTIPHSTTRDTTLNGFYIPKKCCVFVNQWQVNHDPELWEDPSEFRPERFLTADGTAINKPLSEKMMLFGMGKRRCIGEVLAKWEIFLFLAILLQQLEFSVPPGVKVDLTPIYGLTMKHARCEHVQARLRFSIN
Sequence of UniProt P08183 (whole entry, looked up): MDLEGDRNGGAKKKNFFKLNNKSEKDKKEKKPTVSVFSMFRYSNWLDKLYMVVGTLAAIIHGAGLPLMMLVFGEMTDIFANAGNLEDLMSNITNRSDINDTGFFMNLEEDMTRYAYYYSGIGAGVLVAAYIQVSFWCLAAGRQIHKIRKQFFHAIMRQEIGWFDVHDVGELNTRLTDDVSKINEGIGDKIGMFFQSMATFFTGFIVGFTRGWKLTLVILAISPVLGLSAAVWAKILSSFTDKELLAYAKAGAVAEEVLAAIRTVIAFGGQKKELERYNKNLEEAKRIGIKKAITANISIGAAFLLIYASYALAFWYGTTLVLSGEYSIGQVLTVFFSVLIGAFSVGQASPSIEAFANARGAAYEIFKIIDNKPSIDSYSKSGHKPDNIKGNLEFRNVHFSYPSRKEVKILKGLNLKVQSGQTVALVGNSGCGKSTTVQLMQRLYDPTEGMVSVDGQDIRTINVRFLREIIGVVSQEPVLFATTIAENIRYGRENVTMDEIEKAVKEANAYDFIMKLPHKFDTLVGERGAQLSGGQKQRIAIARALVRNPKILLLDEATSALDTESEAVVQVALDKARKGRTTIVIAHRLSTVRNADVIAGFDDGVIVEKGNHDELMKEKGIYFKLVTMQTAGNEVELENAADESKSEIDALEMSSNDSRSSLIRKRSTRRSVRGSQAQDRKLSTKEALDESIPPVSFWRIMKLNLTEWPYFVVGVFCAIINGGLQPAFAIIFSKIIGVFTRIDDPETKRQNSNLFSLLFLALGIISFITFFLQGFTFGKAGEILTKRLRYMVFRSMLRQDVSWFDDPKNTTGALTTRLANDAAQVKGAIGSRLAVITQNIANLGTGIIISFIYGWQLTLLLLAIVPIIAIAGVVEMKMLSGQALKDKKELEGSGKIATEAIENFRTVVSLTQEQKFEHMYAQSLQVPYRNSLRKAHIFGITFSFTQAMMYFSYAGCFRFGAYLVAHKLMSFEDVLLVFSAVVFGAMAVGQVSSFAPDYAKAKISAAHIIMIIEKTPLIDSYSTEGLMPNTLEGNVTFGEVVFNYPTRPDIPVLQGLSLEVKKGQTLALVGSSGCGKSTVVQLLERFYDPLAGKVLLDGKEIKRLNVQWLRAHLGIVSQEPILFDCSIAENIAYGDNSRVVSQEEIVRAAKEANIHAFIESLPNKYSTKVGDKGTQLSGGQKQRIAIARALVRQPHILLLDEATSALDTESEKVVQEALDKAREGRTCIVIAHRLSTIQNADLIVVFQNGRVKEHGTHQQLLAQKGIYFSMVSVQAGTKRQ
Sequence of UniProt P27487 (whole entry, looked up): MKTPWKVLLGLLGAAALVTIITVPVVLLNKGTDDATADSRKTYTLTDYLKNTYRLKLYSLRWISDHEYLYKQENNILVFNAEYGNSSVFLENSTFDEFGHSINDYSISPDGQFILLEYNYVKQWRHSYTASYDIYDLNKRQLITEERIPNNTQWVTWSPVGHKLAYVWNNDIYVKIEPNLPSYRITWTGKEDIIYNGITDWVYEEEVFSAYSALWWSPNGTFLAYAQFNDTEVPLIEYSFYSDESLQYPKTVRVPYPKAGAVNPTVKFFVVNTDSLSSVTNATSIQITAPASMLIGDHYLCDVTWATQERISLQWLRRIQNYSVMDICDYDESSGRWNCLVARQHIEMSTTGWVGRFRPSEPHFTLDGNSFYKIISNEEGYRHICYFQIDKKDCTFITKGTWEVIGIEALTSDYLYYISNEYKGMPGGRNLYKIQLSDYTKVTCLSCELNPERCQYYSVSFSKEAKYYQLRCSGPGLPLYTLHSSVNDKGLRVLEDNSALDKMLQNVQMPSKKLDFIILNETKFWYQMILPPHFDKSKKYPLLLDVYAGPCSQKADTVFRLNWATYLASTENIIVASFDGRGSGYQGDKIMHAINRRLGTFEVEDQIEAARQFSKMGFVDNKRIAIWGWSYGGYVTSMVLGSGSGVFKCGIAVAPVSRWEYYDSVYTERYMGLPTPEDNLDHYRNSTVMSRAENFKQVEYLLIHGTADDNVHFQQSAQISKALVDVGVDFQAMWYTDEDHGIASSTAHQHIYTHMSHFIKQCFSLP
Sequence of UniProt O15439 (whole entry, looked up): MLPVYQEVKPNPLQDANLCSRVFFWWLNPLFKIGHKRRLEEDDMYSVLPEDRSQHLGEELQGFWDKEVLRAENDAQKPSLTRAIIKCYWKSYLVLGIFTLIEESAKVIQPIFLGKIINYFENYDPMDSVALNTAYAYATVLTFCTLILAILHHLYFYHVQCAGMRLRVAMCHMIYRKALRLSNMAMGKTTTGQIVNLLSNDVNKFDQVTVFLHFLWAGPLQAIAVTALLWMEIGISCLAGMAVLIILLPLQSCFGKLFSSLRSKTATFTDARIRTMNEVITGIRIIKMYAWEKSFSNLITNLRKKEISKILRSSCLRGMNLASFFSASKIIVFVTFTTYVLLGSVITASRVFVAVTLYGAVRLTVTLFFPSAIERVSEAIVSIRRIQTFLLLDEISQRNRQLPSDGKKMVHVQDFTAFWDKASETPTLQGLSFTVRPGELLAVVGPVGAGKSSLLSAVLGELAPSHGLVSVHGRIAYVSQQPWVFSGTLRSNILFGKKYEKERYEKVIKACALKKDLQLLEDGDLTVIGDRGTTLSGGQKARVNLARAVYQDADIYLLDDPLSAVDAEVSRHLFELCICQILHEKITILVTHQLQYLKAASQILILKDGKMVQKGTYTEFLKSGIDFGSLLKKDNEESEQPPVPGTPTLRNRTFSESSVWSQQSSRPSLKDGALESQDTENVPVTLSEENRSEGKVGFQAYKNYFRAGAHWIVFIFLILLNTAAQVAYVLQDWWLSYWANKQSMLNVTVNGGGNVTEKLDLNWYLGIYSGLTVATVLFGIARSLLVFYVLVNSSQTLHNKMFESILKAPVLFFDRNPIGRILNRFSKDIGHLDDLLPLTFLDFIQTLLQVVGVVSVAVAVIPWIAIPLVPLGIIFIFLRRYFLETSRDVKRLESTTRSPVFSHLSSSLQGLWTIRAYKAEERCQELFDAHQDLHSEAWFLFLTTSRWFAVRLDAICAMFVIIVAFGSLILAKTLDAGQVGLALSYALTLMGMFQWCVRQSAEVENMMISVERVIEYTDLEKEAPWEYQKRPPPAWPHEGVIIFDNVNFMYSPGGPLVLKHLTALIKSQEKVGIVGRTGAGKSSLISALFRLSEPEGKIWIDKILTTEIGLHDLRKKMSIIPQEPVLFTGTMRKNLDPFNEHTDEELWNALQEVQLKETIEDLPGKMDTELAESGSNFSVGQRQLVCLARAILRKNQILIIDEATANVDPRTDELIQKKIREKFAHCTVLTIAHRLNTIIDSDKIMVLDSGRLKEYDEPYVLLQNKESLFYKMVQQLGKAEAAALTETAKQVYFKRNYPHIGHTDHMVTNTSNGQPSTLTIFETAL

SMILES	target	test	test system	setting	scale	quantity	value
CN1CCN(c2ccc3[nH]c(-c4ccc5[nH]c(-c6ccc(OCCCCNC(=O)c7ccc8c(c7)C7(OC8=O)c8ccc(N(C)C)cc8[Si](C)(C)c8cc(N(C)C)ccc87)cc6)nc5c4)nc3c2)CC1	ALB		PBS	1 µM, 1 h, added: 25 mg/mL albumin		fluorescence quantum yield	0.06 ± 0.001
CC[C@H](C)[C@H](NC(=O)[C@H](Cc1ccccc1)NC(=O)[C@H](CCC(=O)O)NC(=O)[C@H](CCCCN)NC(=O)[C@H](C)NC(=O)[C@H](C)NC(=O)[C@H](CCC(N)=O)NC(=O)CNC(=O)[C@H](CCC(=O)O)NC(=O)[C@H](CC(C)C)NC(=O)[C@H](Cc1ccc(O)cc1)NC(=O)[C@H](CO)NC(=O)[C@H](CO)NC(=O)[C@@H](NC(=O)[C@H](CC(=O)O)NC(=O)[C@H](CO)NC(=O)[C@@H](NC(=O)[C@H](Cc1ccccc1)NC(=O)[C@@H](NC(=O)CNC(=O)[C@H](CCC(=O)O)NC(=O)[C@H](C)NC(=O)[C@@H](N)Cc1c[nH]cn1)[C@@H](C)O)[C@@H](C)O)C(C)C)C(=O)N[C@@H](C)C(=O)N[C@@H](Cc1c[nH]c2ccccc12)C(=O)N[C@@H](CC(C)C)C(=O)N[C@H](C(=O)N[C@@H](CCCNC(=N)N)C(=O)NCC(=O)N[C@@H](CCCNC(=N)N)C(=O)NCC(=O)O)C(C)C	Dipeptidyl peptidase 4 (DPP4, Homo sapiens, UniProt P27487)	HPLC-UV	Tris-HCl	0.1 mM, 1 h, pH 7.4, 37 °C, added: DPP4 16 nM		remaining peptide	9.2%
c1ccc(CN2CCCNCCNCCCNCC2)nc1	Pd(II)	potentiometry and UV spectrophotometry	aqueous 1.0 M KCl	25 °C, Pd2+ + L to PdL		log overall stability constant	42.6
C/C(N)=N/C(=N\S(=O)(=O)c1ccc(C(F)(F)F)cc1)N1C[C@H](c2ccccc2)C(c2ccc(Cl)cc2)=N1	ABCB1		MDCK-MDR1 monolayers	5 µM, 120 min, pH 7.4		Papp A-B	0.12 ± 0.02 ×10⁻⁶ cm/s
CNc1nc(N)nc2c1ncn2[C@@H]1O[C@H](CO)[C@@H](O)[C@@]1(C)F	ABCB1	bidirectional transport	LLC-PK1, human MDR1, transfected with	10 µM		Papp A to B	12.5 ± 0.7 ×10⁻⁶ cm/s
Cc1ccc(NC(=O)NCc2ccc3c(c2)CN(C2CCC(=O)NC2=O)C3=O)cc1Cl (stereo not drawn)	ALB	equilibrium dialysis	human serum albumin 50 mg/mL	6 h, 37 °C		fraction unbound	0.005
CN(C)c1ccc2c(c1)[Si](C)(C)c1cc(N(C)C)ccc1C21OC(=O)c2ccc(C(=O)O)cc21	ALB	binding, fluorescence titration	PBS			Kd	84 ± 9 µM
C=CC(=O)Nc1cc(Nc2nccc(-c3cn(C)c4ccccc34)n2)c(OCC(F)(F)F)nc1N(C)CCN(C)C	CYP1A2 human	inducer	hepatocytes lot LTG	10 µM	baseline: DMSO	relative enzyme activity	17.7
CN1CCN(c2ccc3[nH]c(-c4ccc5[nH]c(-c6ccc(OCCCCNC(=O)c7ccc8c(c7)C(=O)OC87c8ccc(N(C)C)cc8C(C)(C)c8cc(N(C)C)ccc87)cc6)nc5c4)nc3c2)CC1	ALB	binding, second site, fluorescence titration	PBS			Kd	> 1000 µM
CC1(C(=O)OC2OC(C(=O)O)C(O)C(O)C2O)CCC2(C)CCC3(C)C(=CC(=O)C4C5(C)CCC(O)C(C)(C)C5CCC43C)C2C1 (stereo not drawn)	ATP-binding cassette sub-family C member 4 (ABCC4, Homo sapiens, UniProt O15439)	substrate, vesicular transport, refers to: MRP4	inside-out membrane vesicles	100 µM, 1 h	baseline: with over without vanadate	net transport ratio	4 ± 0.9
CNC(=O)C1CCCN(C(=O)C2CC3CCC2N3C(=O)[C@@H]2C[C@@H](O)CN2C(=O)NCc2cccc(Cl)c2F)C1 (mixture of isomers)	Cytochrome P450 1A2 (CYP1A2, Homo sapiens, UniProt P05177)	preincubation without NADPH	human	1.85 µM	baseline: negative control	remaining activity	92.1% and 103% and 100%
CN(C)c1ccc2c(c1)C(C)(C)c1cc(N(C)C)ccc1C21OC(=O)c2cc(C(=O)O)ccc21	ALB	binding, fluorescence titration	PBS			Kd	59 ± 10 µM
CNc1nc(N)nc2c1ncn2[C@@H]1O[C@H](CO[P@](=O)(O)N[C@@H](C)C(=O)O)[C@@H](O)[C@@]1(C)F	ABCB1	bidirectional transport	LLC-PK1, human MDR1, transfected with	10 µM		efflux ratio	1.01 ± 0.1
CN1CCN(c2ccc3[nH]c(-c4ccc5[nH]c(-c6ccc(OCCCCNC(=O)c7cccc8c7C(=O)OC87c8ccc(N(C)C)cc8[Si](C)(C)c8cc(N(C)C)ccc87)cc6)nc5c4)nc3c2)CC1	ALB		PBS	1 µM, 1 h, added: 25 mg/mL albumin		fluorescence quantum yield	0.003 ± 0.004
C[C@@]1(F)[C@H](O)[C@@H](CO)O[C@H]1n1cnc2c(=O)[nH]c(N)nc21	ABCB1	bidirectional transport	LLC-PK1, human MDR1, transfected with	10 µM, added: zosuquidar 1 µM		Papp A to B	13.3 ± 0.8 ×10⁻⁶ cm/s

Some of these lines once more:
SMILES	target	test	test system	setting	scale	quantity	value
c1ccc(CN2CCCNCCNCCCNCC2)nc1	Pd(II)	potentiometry and UV spectrophotometry	aqueous 1.0 M KCl	25 °C, Pd2+ + L to PdL		log overall stability constant	42.6
CN(C)c1ccc2c(c1)[Si](C)(C)c1cc(N(C)C)ccc1C21OC(=O)c2ccc(C(=O)O)cc21	ALB	binding, fluorescence titration	PBS			Kd	84 ± 9 µM
